# Measured values gathered from unrelated publications.
# Values joined by “and” are separate records of one study, mostly repeats; a detail may differ. Numbers after ± are the reported error.
# MT-CYB/UQCRFS1: MT-CYB/UQCRFS1 (Homo sapiens, UniProt P00156+P47985)
# KEAP1 Kelch domain: Kelch-like ECH-associated protein 1, Kelch domain (KEAP1, Homo sapiens, UniProt Q14145)
# Dehaloperoxidase B ferric: Dehaloperoxidase B, ferric (Amphitrite ornata, UniProt Q9NAV7)
SMILES,tested on,assay,test system,setting,scale,measurement,value
Cc1cccc(N(O)N=Nc2ccc(S(=O)(=O)Nc3cc(C)on3)cc2)c1,"α-glucosidase, rat intestine",enzyme activity,,"120 µg/mL, with: 4-nitrophenyl α-D-glucopyranoside",,inhibition,22.5 ± 1.38%
NC(=O)NO,MT-CYB/UQCRFS1,"complex III-dependent respiration, Seahorse XF96",HCT-116,"300 µM, 24 h",reference: control,oxygen consumption rate,88.7 ± 4.83%
[Cl-].[K+],"GUK1 (Homo sapiens, UniProt Q16774)","enzyme activity, NADH-coupled",,3.75 mM,,reaction velocity,0.046 µM/s and 0.0503 µM/s and 0.0584 µM/s
CCN1CCC[C@H]1CNC(=O)c1c(O)c(Cl)cc(Cl)c1OC,"G-protein coupled receptor 146 (GPR146, Homo sapiens, UniProt Q96CH1)","β-arrestin recruitment, TANGO luminescence, refers to: GPR146",,concentration not given,reference: basal luminescence,log2 fold change,1.15
CSCC[C@H](NC(=O)[C@H](CCC(N)=O)NC(=O)[C@H](CC(C)C)NC(=O)[C@H](CO)NC(=O)[C@H](CCC(N)=O)NC(=O)[C@H](CC(C)C)NC(=O)[C@H](CCC(=O)O)NC(=O)CNC(=O)[C@@H](NC(=O)[C@H](CO)NC(=O)[C@@H]1CCCN1C(=O)[C@H](CC(=O)O)NC(=O)[C@@H](NC(=O)[C@H](CCC(=O)O)NC(=O)[C@H](CCCCN)NC(=O)[C@H](CO)NC(=O)[C@H](CO)NC(=O)[C@H](CC(C)C)NC(C)=O)C(C)C)[C@@H](C)O)C(=O)N1CCC[C@H]1C(=O)N[C@@H](CCC(=O)O)C(N)=O,KEAP1 Kelch domain,"binding, ITC",,"pH 7, 298.15 K",,TΔS,-10.4 kcal/mol
Nc1ncnc2c1ncn2[C@H]1C[C@H](O)[C@@H](CO)O1,"GNAS, with Gbeta and Ggamma (Homo sapiens, UniProt P63092)",modulator,,"100 µM, without A2AR",reference: Gs alone,GTP hydrolysis,98.4% and 94.7% and 96%
CC(C)C[C@H](NC(=O)C[C@H](O)[C@H](CC(C)C)NC(=O)[C@H](Cc1c[nH]cn1)NC(=O)CNC(=O)[C@@H](NC(=O)[C@H](C)NC(=O)[C@H](Cc1c[nH]c2ccccc12)NC(=O)[C@H](CCC(N)=O)NC(=O)[C@@H](Cc1ccccc1)NC(=O)COCCOCCNC(=O)CCC(C(=O)O)N1CCN(CC(=O)O)CCN(CC(=O)O)CCN(CC(=O)O)CC1)C(C)C)C(N)=O (some centres unmarked) [lutetium-177 labelled],,,"BALB/c nu/nu mice, muscle","intravenous, 250 pmol, 1 h, with: PA 300 µg",,tissue uptake,0.15 ± 0.05 %ID/g
O=CNc1ccc(Br)cc1C=O,Dehaloperoxidase B ferric,"product, HPLC",,"with: 5-bromoindole 500 µM, H2O2 250 µM",,share of total products,0.6%
CCn1c(-c2nc3cc(C(=O)N4CCC[C@@H](N)C4)cc(OC)c3n2C)cc2cccnc21,"Protein-arginine deiminase type-3 (PADI3, Homo sapiens, UniProt Q9ULW8)",mixed inhibitor,,"with: BAEE substrate, 10 mM CaCl2",,Ki',9 ± 6.8 mM
CC(C)CC(=O)N[C@H](C(=O)N[C@H](C(=O)N[C@@H](CC(C)C)[C@@H](O)CC(=O)N[C@@H](C)C(=O)N[C@@H](CC(C)C)[C@@H](O)CC(=O)NCCOCCOCCC(=O)NCCCC[C@H](NC(=O)CN1CCN(CC(=O)O)CCN(CC(=O)O)CC1)C(=O)O)C(C)C)C(C)C,"Cathepsin D (CTSD, Homo sapiens, UniProt P07339)",surface plasmon resonance,,,,association rate constant,971 M⁻¹ s⁻¹
CCN(O)N=Nc1ccc(S(=O)(=O)Nc2nccs2)cc1,"α-glucosidase, rat intestine",enzyme activity,,"20 µg/mL, with: 4-nitrophenyl α-D-glucopyranoside",,inhibition,12.5 ± 0.01%
OCCN(CCO)c1nc(N2CCCCC2)c2nc(N(CCO)CCO)nc(N3CCCCC3)c2n1,"Translocator protein (TSPO, Homo sapiens, UniProt P30536)",frontal affinity chromatography,platelet membrane affinity column,"concentration not given, Abcam isolation kit",,number of binding sites,44 nmol
Cc1nc(CSc2nc(SCc3ccc(C(C)C)cc3)nc(=O)[nH]2)cs1,"DNA topoisomerase 2-alpha (TOP2A, Homo sapiens, UniProt P11388)",decatenation,,"125 µM, replicate 1",,decatenated DNA,0%
[O-][S+]1CCCCS1 (centres unmarked),"Superoxide dismutase [Cu-Zn] (SOD1, Homo sapiens, UniProt P00441, G94A)",intact protein LC-MS,"SOD1 G93A transgenic mice, whole blood","intravenous, 10 mg/kg, 1 h",,target engagement,63% and 60.7%
CC(C)OCCn1c(=S)[nH]c(=O)c2[nH]ccc21,"Myeloperoxidase (MPO, Homo sapiens, UniProt P05164)","H2O2 consumption, inhibitor, H2O2 electrode",,"0.68 µM, 0 s",,H2O2 concentration,-35.7 µM
CC(=O)N[C@@H](C)C(=O)N[C@@H](CC(N)=O)C(=O)NCC(=O)N[C@@H](CC(N)=O)C(=O)N[C@@H](C)C(=O)N[C@@H](CC(N)=O)C(=O)N[C@@H](CCC(=O)O)C(=O)N[C@@H](CCC(=O)O)C(=O)N[C@@H](CC(N)=O)C(=O)NCC(=O)N[C@@H](CCC(=O)O)C(=O)N[C@@H](CCC(N)=O)C(=O)N[C@@H](CCC(=O)O)C(=O)N[C@@H](C)C(=O)N[C@@H](CC(=O)O)C(=O)N[C@@H](CC(N)=O)C(=O)N[C@@H](CCC(=O)O)C(=O)N[C@H](C(=O)N[C@@H](CC(=O)O)C(N)=O)C(C)C,KEAP1 Kelch domain,ITC,,concentration not given,,binding stoichiometry,1.04
NCCCCC(=O)O,"Sodium- and chloride-dependent taurine transporter (SLC6A6, Homo sapiens, UniProt P31641, Y138A)","binding, microscale thermophoresis",,"1 mM, room temperature, with: 50 nM labelled protein",higher = more binding,normalised MST signal,0.0487
O=C(COP(=O)(O)O)[C@@H](O)[C@H](O)[C@H](O)COP(=O)(O)O,"Dipeptidyl peptidase 1 (CTSC, Homo sapiens, UniProt P53634)",thermal proteome profiling,HepG2 cell lysate,"concentration not given, 57 over 37 °C, mean",reference: compound over control,thermal stability ratio,1.6
CCCCC[C@@H]1OC(=O)[C@@H](C)N(C)C(=O)[C@H](CCCCC)OC(=O)[C@@H](C)N(C)C(=O)[C@H](CC(=O)O)OC(=O)[C@@H](C)N(C)C(=O)[C@H](CCCCC)OC(=O)[C@@H](C)N(C)C1=O,"ryanodine receptor 2 (Sus scrofa, UniProt A0A5G2R1W3)","single-channel gating, planar lipid bilayer",,"50 µM, pCa 7, porcine",,open dwell time constant T2,15 ± 6.4 ms
CC[C@@H]1[C@H](F)C(=O)N[C@@H]1COc1nccc2cc(C(N)=O)c(OC)cc12,"Serine/threonine-protein kinase OSR1 (OXSR1, Homo sapiens, UniProt O95747)","ATP-site probe binding, ActivX profiling, refers to: OSR1",THP-1 cell lysate,"0.01 mM, Lys2 site",,inhibition,-18.1%
CN1CCN(c2cc(-c3ccncc3)c(-c3ccc4ccccc4c3)nn2)CC1,"C-X-C chemokine receptor type 2 (CXCR2, Homo sapiens, UniProt P25025)","agonist, FLIPR",,12.5 µM,,activation,-0.2%
CCCNCC(O)COc1ccccc1C(=O)CCc1ccccc1 (centres unmarked),"PKD2L1 (Homo sapiens, UniProt Q9P0L9, F514A)","ion current, patch clamp",,concentration not given,,tail current,inhibited
Cn1cnc([N+](=O)[O-])c1SCc1csc2ccccc12,"Protein lin-28 homolog A (Mus musculus, UniProt Q8K3Y3)",,,,,Hill slope,-1.1
O=C1Nc2ccc(Br)cc2C1O (centres unmarked),Dehaloperoxidase B ferric,"product, HPLC",,"with: 5-bromoindole 500 µM, H2O2 500 µM",,share of total products,3.9%
Nc1nc2c(ncn2[C@@H]2O[C@H](COP(=O)(O)O)[C@@H](O)[C@H]2O)c(=O)[nH]1,"GUK1 (Homo sapiens, UniProt Q16774, E72A)","enzyme activity, NADH-coupled",,500 µM,,reaction rate,0.303 s⁻¹ and 0.27 s⁻¹ and 0.52 s⁻¹
NCCS(=O)(=O)O,"Sodium- and chloride-dependent taurine transporter (SLC6A6, Homo sapiens, UniProt P31641, S402A)","binding, microscale thermophoresis",,"500 µM, room temperature, with: 50 nM labelled protein",higher = more binding,normalised MST signal,0.0294
Nc1ncnc2c1ncn2[C@@H]1O[C@H](COP(=O)(O)OP(=O)(O)OP(=O)(O)O)[C@@H](O)[C@H]1O,"hexokinase, yeast",substrate,,"pH 8.0, 25 °C, MgCl2 1.5 mM, with: glucose varied",,Kia,241 µM
CC(=O)N[C@@H](CO)C(=O)N[C@@H](CC(C)C)C(=O)N[C@@H](CCC(=O)O)C(=O)N[C@@H](CCC(=O)O)C(=O)N1CCC[C@H]1C(=O)N[C@@H](Cc1c[nH]cn1)C(=O)N[C@@H](CO)C(=O)N1CCC[C@H]1C(=O)N[C@@H](CCC(=O)O)C(=O)N[C@H](C(=O)NCC(=O)N[C@@H](CCC(=O)O)C(=O)N[C@@H](CCCCN)C(=O)N[C@H](C(=O)N[C@H](C(=O)N[C@@H](C)C(=O)NCC(=O)N[C@@H](CCC(=O)O)C(=O)N[C@H](C(=O)N[C@@H](CC(N)=O)C(N)=O)C(C)C)C(C)C)C(C)C)[C@@H](C)O,KEAP1 Kelch domain,"binding, ITC",,"pH 7, 298.15 K",,ΔH,-18.15 ± 0.094 kcal/mol
NC(=O)NOCCCCCCCCCCCCCCCC[P+](c1ccccc1)(c1ccccc1)c1ccccc1.O=C([O-])C(F)(F)F,MT-CYB/UQCRFS1,"complex III-dependent respiration, Seahorse XF96",HCT-116,"0.6 µM, 24 h",reference: control,oxygen consumption rate,80.1%
COc1oc(=O)c2cc(N)ccc2c1Cl,"Rhomboid protease GlpG (glpG, Escherichia coli, UniProt P09391)","substrate cleavage, inhibitor",NR698,,,IC50,inactive
NC(=O)NOCCCCCCCCCCCC[P+](c1ccccc1)(c1ccccc1)c1ccccc1.O=C([O-])C(F)(F)F,MT-CYB/UQCRFS1,"complex III-dependent respiration, Seahorse XF96",HCT-116,"7.5 µM, 24 h",reference: control,oxygen consumption rate,24.6 ± 2.19%
N=C(N)Nc1nc2ccccc2[nH]1,"Voltage-gated hydrogen channel 1 (HVCN1, Homo sapiens, UniProt Q96D96)","proton current, inhibitor, inside-out patch clamp",Xenopus oocytes,dimeric channel,,Hill coefficient,0.93 ± 0.04
Nc1ccc(C(=O)O)cc1,"BEST1, with wild-type BEST1 (Homo sapiens, UniProt O76090, L234P)","ion current, whole-cell patch clamp",HEK293 co-expressing mutant and wild-type,"concentration not given, voltage -20 mV",,current density,-3.13 pA/pF and -10.4 pA/pF and -2.85 pA/pF and -1.63 pA/pF and -4 pA/pF and -5.46 pA/pF
NC(=O)NOCCCCCCCCCCCCCCCCCCCC[P+](c1ccccc1)(c1ccccc1)c1ccccc1.O=C([O-])C(F)(F)F,MT-CYB/UQCRFS1,"complex III-dependent respiration, Seahorse XF96",HCT-116,"3 µM, 24 h",reference: control,oxygen consumption rate,60.3%
Nc1ncnc2c1ncn2[C@@H]1O[C@H](COP(=O)(O)CP(=O)(O)OP(=O)(O)O)[C@@H](O)[C@H]1O,"P2X purinoceptor 1 (P2RX1, Homo sapiens, UniProt P51575, R139P)",saturation binding,HEK293,1 nM,,specific binding,18 CCPM and 18.5 CCPM

# Excerpt of the above:
SMILES,tested on,assay,test system,setting,scale,measurement,value
Cc1cccc(N(O)N=Nc2ccc(S(=O)(=O)Nc3cc(C)on3)cc2)c1,"α-glucosidase, rat intestine",enzyme activity,,"120 µg/mL, with: 4-nitrophenyl α-D-glucopyranoside",,inhibition,22.5 ± 1.38%
NC(=O)NO,MT-CYB/UQCRFS1,"complex III-dependent respiration, Seahorse XF96",HCT-116,"300 µM, 24 h",reference: control,oxygen consumption rate,88.7 ± 4.83%
[Cl-].[K+],"GUK1 (Homo sapiens, UniProt Q16774)","enzyme activity, NADH-coupled",,3.75 mM,,reaction velocity,0.046 µM/s and 0.0503 µM/s and 0.0584 µM/s
CCN1CCC[C@H]1CNC(=O)c1c(O)c(Cl)cc(Cl)c1OC,"G-protein coupled receptor 146 (GPR146, Homo sapiens, UniProt Q96CH1)","β-arrestin recruitment, TANGO luminescence, refers to: GPR146",,concentration not given,reference: basal luminescence,log2 fold change,1.15
CSCC[C@H](NC(=O)[C@H](CCC(N)=O)NC(=O)[C@H](CC(C)C)NC(=O)[C@H](CO)NC(=O)[C@H](CCC(N)=O)NC(=O)[C@H](CC(C)C)NC(=O)[C@H](CCC(=O)O)NC(=O)CNC(=O)[C@@H](NC(=O)[C@H](CO)NC(=O)[C@@H]1CCCN1C(=O)[C@H](CC(=O)O)NC(=O)[C@@H](NC(=O)[C@H](CCC(=O)O)NC(=O)[C@H](CCCCN)NC(=O)[C@H](CO)NC(=O)[C@H](CO)NC(=O)[C@H](CC(C)C)NC(C)=O)C(C)C)[C@@H](C)O)C(=O)N1CCC[C@H]1C(=O)N[C@@H](CCC(=O)O)C(N)=O,KEAP1 Kelch domain,"binding, ITC",,"pH 7, 298.15 K",,TΔS,-10.4 kcal/mol
Nc1ncnc2c1ncn2[C@H]1C[C@H](O)[C@@H](CO)O1,"GNAS, with Gbeta and Ggamma (Homo sapiens, UniProt P63092)",modulator,,"100 µM, without A2AR",reference: Gs alone,GTP hydrolysis,98.4% and 94.7% and 96%
